Measurements collected from several papers.
Lines come from different studies, so protocols differ. ± gives the spread as reported.
UniProt P23909, sequence (whole entry, unmodified, looked up): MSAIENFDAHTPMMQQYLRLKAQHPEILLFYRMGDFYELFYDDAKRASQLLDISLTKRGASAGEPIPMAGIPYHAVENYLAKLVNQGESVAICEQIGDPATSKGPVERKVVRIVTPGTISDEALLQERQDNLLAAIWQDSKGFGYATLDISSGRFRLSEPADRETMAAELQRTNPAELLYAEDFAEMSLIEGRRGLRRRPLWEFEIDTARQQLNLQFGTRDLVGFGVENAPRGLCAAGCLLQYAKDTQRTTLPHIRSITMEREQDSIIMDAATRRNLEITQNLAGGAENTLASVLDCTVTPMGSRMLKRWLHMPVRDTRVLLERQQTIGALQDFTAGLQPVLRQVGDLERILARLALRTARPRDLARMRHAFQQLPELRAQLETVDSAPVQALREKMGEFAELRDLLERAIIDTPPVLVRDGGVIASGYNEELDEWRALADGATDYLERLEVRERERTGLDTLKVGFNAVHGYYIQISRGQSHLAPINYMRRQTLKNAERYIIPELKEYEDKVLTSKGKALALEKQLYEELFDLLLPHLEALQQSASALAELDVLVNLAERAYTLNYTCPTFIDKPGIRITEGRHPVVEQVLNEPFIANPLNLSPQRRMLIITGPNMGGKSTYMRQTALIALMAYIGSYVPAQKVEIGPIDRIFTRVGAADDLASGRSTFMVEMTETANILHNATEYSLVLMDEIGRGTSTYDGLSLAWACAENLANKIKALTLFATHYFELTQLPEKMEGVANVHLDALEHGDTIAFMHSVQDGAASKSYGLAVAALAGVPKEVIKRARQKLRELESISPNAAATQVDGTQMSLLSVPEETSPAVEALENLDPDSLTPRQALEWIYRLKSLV
UniProt Q5E9C8, sequence (whole entry, looked up): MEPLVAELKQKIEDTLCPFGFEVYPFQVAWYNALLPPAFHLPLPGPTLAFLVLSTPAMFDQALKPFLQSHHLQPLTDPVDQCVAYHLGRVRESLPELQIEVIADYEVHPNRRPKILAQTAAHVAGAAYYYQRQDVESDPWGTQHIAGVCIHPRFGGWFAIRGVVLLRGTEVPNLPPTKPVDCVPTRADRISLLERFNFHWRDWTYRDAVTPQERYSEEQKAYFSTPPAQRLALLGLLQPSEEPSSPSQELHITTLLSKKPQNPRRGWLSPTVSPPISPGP
UniProt A0A0B4J240, sequence (whole entry, looked up): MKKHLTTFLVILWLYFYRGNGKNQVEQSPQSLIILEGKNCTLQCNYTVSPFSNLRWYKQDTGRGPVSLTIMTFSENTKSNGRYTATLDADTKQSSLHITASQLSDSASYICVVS
UniProt P02730, sequence (whole entry, looked up): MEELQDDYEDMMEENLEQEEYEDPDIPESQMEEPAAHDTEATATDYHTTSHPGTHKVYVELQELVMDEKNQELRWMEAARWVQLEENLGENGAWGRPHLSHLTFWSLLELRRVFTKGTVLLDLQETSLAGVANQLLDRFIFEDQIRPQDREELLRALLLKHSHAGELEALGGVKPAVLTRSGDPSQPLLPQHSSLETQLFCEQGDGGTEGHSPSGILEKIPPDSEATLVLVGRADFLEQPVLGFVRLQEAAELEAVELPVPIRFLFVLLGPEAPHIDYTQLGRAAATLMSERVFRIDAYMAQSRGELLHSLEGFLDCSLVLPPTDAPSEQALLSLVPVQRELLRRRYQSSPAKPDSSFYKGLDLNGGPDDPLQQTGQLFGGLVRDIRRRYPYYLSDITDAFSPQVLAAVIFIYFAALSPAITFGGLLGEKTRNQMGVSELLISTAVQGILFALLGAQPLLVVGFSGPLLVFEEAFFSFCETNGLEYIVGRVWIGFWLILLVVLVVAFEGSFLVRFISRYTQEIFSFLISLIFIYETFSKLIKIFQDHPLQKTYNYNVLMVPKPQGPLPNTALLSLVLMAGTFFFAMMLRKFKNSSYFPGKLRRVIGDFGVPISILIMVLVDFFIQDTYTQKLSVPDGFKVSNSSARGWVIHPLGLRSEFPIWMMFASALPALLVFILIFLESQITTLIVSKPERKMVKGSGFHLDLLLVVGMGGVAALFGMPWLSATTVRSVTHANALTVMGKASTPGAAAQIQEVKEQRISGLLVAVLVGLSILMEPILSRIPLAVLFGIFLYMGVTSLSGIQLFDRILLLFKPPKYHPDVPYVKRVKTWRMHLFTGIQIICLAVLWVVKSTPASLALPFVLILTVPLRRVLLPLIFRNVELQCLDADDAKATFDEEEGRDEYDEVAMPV
UniProt P15813, sequence (whole entry, looked up): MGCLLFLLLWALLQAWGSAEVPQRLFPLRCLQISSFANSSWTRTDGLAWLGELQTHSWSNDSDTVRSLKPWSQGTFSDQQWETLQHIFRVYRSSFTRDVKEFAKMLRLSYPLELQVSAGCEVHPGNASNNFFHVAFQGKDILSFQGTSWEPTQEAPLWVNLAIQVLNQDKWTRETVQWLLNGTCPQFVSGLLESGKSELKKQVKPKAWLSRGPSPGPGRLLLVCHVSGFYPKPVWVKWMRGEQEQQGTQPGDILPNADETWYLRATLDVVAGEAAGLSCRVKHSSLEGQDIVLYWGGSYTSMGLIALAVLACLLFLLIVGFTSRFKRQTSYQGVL
UniProt O60656, sequence (whole entry, looked up): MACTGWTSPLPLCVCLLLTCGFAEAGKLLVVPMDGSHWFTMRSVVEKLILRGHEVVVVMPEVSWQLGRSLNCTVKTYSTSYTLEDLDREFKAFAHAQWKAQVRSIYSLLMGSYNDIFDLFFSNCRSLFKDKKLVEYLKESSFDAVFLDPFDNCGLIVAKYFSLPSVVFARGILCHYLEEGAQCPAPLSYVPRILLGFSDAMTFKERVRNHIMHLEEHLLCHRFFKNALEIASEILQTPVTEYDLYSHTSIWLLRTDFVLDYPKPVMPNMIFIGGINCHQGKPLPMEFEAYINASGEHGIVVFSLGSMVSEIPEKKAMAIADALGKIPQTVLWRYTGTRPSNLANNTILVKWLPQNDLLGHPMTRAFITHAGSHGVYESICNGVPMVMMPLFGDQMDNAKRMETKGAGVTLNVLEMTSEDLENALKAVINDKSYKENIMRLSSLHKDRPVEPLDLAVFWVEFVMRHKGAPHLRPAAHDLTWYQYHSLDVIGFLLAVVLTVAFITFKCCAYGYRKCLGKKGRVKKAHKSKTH
UniProt P38999, sequence (whole entry, unmodified, looked up): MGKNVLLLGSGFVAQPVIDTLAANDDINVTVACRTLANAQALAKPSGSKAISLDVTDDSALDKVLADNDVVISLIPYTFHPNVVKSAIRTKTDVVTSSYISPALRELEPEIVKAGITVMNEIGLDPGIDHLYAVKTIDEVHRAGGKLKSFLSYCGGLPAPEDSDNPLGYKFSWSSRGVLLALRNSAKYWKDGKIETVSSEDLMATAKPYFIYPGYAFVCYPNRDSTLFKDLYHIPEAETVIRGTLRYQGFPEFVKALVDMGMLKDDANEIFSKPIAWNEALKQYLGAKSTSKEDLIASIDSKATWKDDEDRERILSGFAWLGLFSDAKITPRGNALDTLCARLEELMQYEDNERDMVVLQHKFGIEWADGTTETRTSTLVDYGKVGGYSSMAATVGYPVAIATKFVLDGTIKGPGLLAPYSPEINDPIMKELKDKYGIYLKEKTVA
UniProt Q68D91, sequence (whole entry, looked up): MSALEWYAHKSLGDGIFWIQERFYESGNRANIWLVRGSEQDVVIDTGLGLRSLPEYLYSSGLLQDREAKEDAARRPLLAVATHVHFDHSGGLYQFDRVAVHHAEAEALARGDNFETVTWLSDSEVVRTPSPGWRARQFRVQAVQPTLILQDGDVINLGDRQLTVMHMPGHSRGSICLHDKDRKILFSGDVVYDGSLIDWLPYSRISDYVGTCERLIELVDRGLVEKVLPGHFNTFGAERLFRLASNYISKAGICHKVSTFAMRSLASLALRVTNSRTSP
UniProt P59113, sequence (whole entry, looked up): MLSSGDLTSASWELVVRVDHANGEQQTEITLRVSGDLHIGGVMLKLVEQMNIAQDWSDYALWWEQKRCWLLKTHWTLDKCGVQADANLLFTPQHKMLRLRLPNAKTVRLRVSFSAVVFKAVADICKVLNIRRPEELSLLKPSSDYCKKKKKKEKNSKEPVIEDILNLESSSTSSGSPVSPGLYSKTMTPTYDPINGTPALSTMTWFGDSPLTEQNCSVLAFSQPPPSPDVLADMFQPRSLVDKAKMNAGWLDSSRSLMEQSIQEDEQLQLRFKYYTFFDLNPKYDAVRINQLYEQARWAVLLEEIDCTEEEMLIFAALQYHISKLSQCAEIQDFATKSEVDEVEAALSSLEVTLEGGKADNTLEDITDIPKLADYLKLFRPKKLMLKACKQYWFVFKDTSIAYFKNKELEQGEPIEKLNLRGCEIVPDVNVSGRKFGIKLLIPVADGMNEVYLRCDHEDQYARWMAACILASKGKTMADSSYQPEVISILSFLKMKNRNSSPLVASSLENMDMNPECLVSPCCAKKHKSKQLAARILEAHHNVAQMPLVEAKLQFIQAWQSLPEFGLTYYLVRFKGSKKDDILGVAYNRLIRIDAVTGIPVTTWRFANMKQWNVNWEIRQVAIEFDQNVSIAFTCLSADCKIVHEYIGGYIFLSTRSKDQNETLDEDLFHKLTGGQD
UniProt Q7RTN6, sequence (whole entry, looked up): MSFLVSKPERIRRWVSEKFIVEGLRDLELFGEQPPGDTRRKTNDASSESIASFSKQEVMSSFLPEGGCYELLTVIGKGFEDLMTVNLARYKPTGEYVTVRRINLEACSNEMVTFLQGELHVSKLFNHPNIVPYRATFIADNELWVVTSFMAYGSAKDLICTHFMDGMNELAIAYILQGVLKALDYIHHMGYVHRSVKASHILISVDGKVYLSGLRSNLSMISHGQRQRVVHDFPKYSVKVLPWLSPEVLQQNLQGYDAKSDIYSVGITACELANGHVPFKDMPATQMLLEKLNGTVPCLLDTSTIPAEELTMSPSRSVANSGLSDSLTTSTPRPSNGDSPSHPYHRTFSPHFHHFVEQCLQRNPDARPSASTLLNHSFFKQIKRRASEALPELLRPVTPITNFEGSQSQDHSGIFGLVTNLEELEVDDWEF

11-deoxycorticosterone — Kd (murine anti-cortisol Fab fragment; native mass spectrometry; 1.5% DMSO, 0.5% methanol): 1.4 ± 0.4 µM
[I-].[K+] — Kd (SLC4A1 (Homo sapiens, UniProt P02730); 36Cl exchange flux, inhibitor, Dixon plot; human red blood cells; pH 11.6 external, 0 °C, internal Cl 295 mM, CAPS buffer): 44800 µM
Cc1[nH]c2ccccc2c1CCNCc1ccc(/C=C/C(=O)NO)cc1 — Kd (MBLAC2 (Homo sapiens, UniProt Q68D91); binding, competitor, chemoproteomic pulldown; SW-620 MV4-11 lysate; 1 h, 30 °C): 1.26 µM
Nc1ncnc2c1ncn2[C@@H]1O[C@H](COP(=O)(O)OP(=O)(O)OP(=O)(O)O)[C@@H](O)[C@H]1O — Kd (STRADA (Homo sapiens, UniProt Q7RTN6)): 54 µM
N[C@@H](CCCC=O)C(=O)O — Kd (Saccharopine dehydrogenase [NADP(+), L-glutamate-forming], D126A (LYS9, Saccharomyces cerevisiae, UniProt P38999); enzyme activity, substrate; pH 7.0, 25 °C, D126A mutant, with: NADPH and L-glutamate saturating): 1260 ± 80 µM
TAMRA-ADP — Kd (mutS (Escherichia coli, UniProt P23909, D693N); fluorescence anisotropy; room temperature, no DNA): 0.646 ± 0.14 µM
O=P(O)(O)O[C@H]1[C@H](OP(=O)(O)O)[C@@H](O)[C@H](O)[C@H](O)[C@@H]1OP(=O)(O)O — Kd (Fermitin family homolog 1, PH domain (Fermt1, Mus musculus, UniProt P59113); SPR; pH 7.5, biotinylated compound immobilised): 224 µM
CCCCCCCCCCCCC/C=C/[C@@H](O)[C@H](CO[C@@H]1O[C@H](CO)[C@@H](O[C@@H]2O[C@H](CO)[C@H](O)[C@H](O[C@H]3O[C@H](CO)[C@H](O)[C@H](O)[C@H]3O)[C@H]2O)[C@H](O)[C@H]1O)NC(=O)CCCCCCCCCCCCCCCCCCCCCCCCC — Kd (TRAV10/CD1D, T48C (Homo sapiens, UniProt A0A0B4J240+P15813); T-cell receptor binding to complex, surface plasmon resonance; 25 °C, compound loaded on protein): 6.8 µM
C/C1=C2N=C(/C=C3N=C(/C(C)=C4\[N-]C(C(CC(N)=O)C4(C)CCC(=O)NCC(C)OP(=O)([O-])OC4C(CO)OC(n5cnc6cc(C)c(C)cc65)C4O)C4(C)N=C1C(CCC(N)=O)C4(C)CC(N)=O)C(CCC(N)=O)C\3(C)C)C(CCC(N)=O)C/2(C)CC(N)=O.NC(CCC(=O)NC(C[S-])C(=O)NCC(=O)O)C(=O)O.[Co+3] (centres unmarked) — Kd (Cyanocobalamin reductase / alkylcobalamin dealkylase (MMACHC, Bos taurus, UniProt Q5E9C8); UV-Vis spectroscopy; dark conditions): 12.8 ± 2.3 µM
UGT1A9 (Homo sapiens, UniProt O60656) — Vmax/Km (O=c1cc(-c2cccc(O)c2)oc2cc(O)ccc12; steady-state kinetics; pH 7.4, 37 °C): 546 µL/min/mg
Nc1ncnc2c1ncn2[C@@H]1O[C@H](COP(=O)(O)OP(=O)(O)O)[C@@H](O)[C@H]1O — Kd (ATP1A1 (Sus scrofa, UniProt P05024); binding, radioligand binding; pig membranes; pH 7.7, 0 °C, ionic strength 178 mM, with: NaCl 119 mM): 0.649 ± 0.006 µM
